Results collected from several papers.
Every numbered part comes from another study and shows a few of its results, in no order.

Set 1
Target: Centromere-binding protein 1, full length, N-terminal tag (CBF1, Saccharomyces cerevisiae, UniProt P17106, residues 1-351)
Sequence of UniProt P17106 (whole entry, looked up): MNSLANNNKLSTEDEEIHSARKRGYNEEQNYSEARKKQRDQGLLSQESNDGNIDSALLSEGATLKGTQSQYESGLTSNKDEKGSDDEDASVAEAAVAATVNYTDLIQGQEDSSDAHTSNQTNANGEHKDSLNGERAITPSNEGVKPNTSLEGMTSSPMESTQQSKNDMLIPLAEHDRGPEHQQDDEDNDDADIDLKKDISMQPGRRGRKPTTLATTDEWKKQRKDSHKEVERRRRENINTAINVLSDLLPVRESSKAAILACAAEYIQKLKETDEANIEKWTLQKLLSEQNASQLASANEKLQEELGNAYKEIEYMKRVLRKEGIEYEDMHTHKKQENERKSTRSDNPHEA
Method: protein-binding microarray
Form: double-stranded DNA, one strand shown
Medium: in vitro
Tested at: 0.8 µM
Notes: whole 60-bp probe, no competitor
Direction: higher = stronger binding
Measurement: fluorescence intensity
CTACGTTATAGAACACAGGAGACGCTTGCATTATTCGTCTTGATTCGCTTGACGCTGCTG: 519 a.u.
GAAAATTTTTAAGTCAGTGTGACCCAATAAGAATAGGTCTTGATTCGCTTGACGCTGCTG: 756 a.u.
CTAAATGGCACTAATCACCTGCCTTCTGTTGACTTCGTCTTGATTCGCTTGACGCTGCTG: 791 a.u.
CTAAACGATTCAAAGCAGGTGAATTTCCATTACTTCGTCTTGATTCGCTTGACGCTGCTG: 505 a.u.
CTAGCGACCAGGAATCTCCTGATTGCGTACTACTTCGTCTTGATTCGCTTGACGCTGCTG: 542 a.u.
GAACTTGTTGCTAGGAACGTGATGATGGATTTCTAGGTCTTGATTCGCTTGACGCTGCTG: 1060 a.u.
GAAATGACAATGCAGCACGTGGGAGACAAATAGTAGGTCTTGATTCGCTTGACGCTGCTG: 5860 a.u.
TGTACGAAGCTATAAGCACAGGTTATAGTAGTTAGGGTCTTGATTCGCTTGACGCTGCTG: 514 a.u.
CTATTTTTAGGACGTGACCAAATGCGAGCTGCATTCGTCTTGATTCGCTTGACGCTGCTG: 2360 a.u.
CTAAACAATATTCATTACATCAGAATGCGAAAATTCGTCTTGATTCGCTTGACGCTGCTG: 516 a.u.
CTACTTGAAAATTGGCACGTTTTCTTCTTGTTTTTCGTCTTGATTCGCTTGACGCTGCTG: 673 a.u.
TGTACGAAGCTATATCAGATGGTTATAGTAGTTAGGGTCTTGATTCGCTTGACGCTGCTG: 594 a.u.
CTAGTTGTTATTATTATCGTGATTATTATTTAGTTCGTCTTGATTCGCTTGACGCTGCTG: 698 a.u.

Set 2
Target: Interferon regulatory factor 5, full length, phosphomimetic (IRF5, Homo sapiens, UniProt Q13568-2, residues 1-514, S451D/S453D/S456D/S462D)
Method: protein-binding microarray
Form: double-stranded DNA, one strand shown
Medium: in vitro
Tested at: 940 nM top
Notes: 60-bp whole probe
Added: salmon DNA 0.4 mg/ml
Baseline: random background probes
Direction: higher = stronger binding
Measurement: fitted relative affinity
All sequences stand within: GCCTAGCAC … GTCTTGATTCGCTTGACGCTGCTG
TCATATTTAAGAACTATGACTGTGCTA: 0.114 z-score
GTTTTACTTTCTATCTCTGTGTGCTAG: 3.67 z-score
GACGGACTGCTACTGCAGACGTGCTAG: -0.805 z-score
GACGATATGAGTATCGAGACGTGCTAG: 1.62 z-score
GACGTTTTTCATTTTTTTTTGTGCTAG: 1.26 z-score
TTAGGACTGGGGTATCGATTAGTGCTA: 2.62 z-score
GACGGTTTCGCCACTGGGGACGTGCTA: 5.65 z-score
GACGGATTCCTTTCCCTGACGTGCTAG: 0.378 z-score
TTAGGTATCGACTATCGCTTAGTGCTA: 5.83 z-score
GACGCTATCGACTATCGGGACGTGCTA: -0.00416 z-score
TGGGCTCTAGGTTCTCTGAAGGTGCTA: -0.498 z-score
TTAGGTTTCGGGACAGGGTTAGTGCTA: 8.73 z-score
TTACGTTTCGGGTTTCGGTTAGTGCTA: 9.16 z-score
GAGGGACTGGACTTTCGGGACGTGCTA: -0.0634 z-score
TCACTTTCCCAGCCTGGGACTGTGCTA: 0.517 z-score
GACGATTTCAATCTCGAGACGTGCTAG: 0.243 z-score
TCATCTTTCCTTCTTGAACTGTGCTAG: 1.44 z-score
GACGTTATCGGGTTTCGAGACGTGCTA: 1.73 z-score
GACGATTTCGGGCCTGGAGACGTGCTA: -0.239 z-score
TTTTTTTTTTACTTCGGGTGGTGCTAG: 1.09 z-score
GCCGGTATCGACTTTCGGGACGTGCTA: 5.17 z-score
GGCCCTGTCCTTTTCTTTACGTGCTAG: 1.37 z-score
TCCTCTTTCACTGCTCCCCACGTGCTA: 2.31 z-score

Set 3
Target: RNA binding protein fox-1 homolog 2, RRM domain, GST-SBP tag (RBFOX2, Homo sapiens, UniProt O43251-10, residues 100-194)
Method: RNA Bind-n-Seq
Form: RNA
Medium: in vitro
Tested at: 365 nM
Notes: natural RNA segment, single round, ends assumed
Baseline: no-protein control
Direction: higher = stronger binding
Measurement: RBNS enrichment (R)
Residues (chain): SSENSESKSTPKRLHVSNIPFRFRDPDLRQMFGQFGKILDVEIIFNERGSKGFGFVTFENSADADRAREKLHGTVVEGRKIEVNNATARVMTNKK
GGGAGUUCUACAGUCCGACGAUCUUCGGGUGACCAGGUGCUUGUGACCUACAAGUCAGAGUCCUCUCUCACAGUCGGCCACUGGAUUUCCCUCACUGGCUCUCAGGAGUGUGACCAGAGUAGACUUGGGGCAUUGGAAUUCUCGGGUGCCAA: 0.225
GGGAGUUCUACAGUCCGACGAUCAAAAUUGCUUUUGCCUUUUUCAUGAAUGUUAAGCAGCAGCAUUGUGAGAUCGAUCUGUCCUGGCAGUUAACACGAUGUGCAACAGUGUGUUAGCAUGGAACAGAACGCUUUGGAAUUCUCGGGUGCCAA: 0.38
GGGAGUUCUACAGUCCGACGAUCGAGCGCCCCCUCCCAUUGUAUAGCCUUGAACCCGAUUGUGAAUACAAUGUAGCAACUUCGCUGGCGCCUGCCCCGCACUCCCCGUCCCGUCCACUUCUGAAACUCCUGUUUGGAAUUCUCGGGUGCCAA: 1.61
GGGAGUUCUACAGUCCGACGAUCGUUUGUGGUAAGGUAGCCACACCUGGAGCUCACGUGUAACCUGGAGCGCUGUGCUACCAGUAGCUUUGGGGUUUUGGAAGCAGACACACCAAAGCCGAGCAUCAUAGAGAUGGAAUUCUCGGGUGCCAA: 0.316
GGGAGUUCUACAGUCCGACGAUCUCCUGUUGUCUGAAACCUGGAGCUAAGCAGGUUGUCCUGUCACAAGCUCUGGGGACUGAGCUCCAUGCUCCAACCCCACCCUCUUCUGACCUUUGUUCUCCAGACCUGACUGGAAUUCUCGGGUGCCAA: 0.507
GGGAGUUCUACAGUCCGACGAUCCAAGGCCGGGGGUCGUGGCUUUGGCCUCUGACUUCUAAGCCAAGAUGCCCUGUAAACACUCUCUCAGCAGAACAAGGACAAAGUGCCGUGUCUGAGAGAGAGUGCCACACUGGAAUUCUCGGGUGCCAA: 0.227
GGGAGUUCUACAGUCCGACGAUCCUUGACGGGAGCAUUGGCCCCUGAGCCCAGAGAAGCUGGAAGCCUGCCGAAAACAGGAGCAAAUGGCGUUUUAUAAAUUAUUUUUUUGAAAUAAAGCUCUGUGUGCCUGGUGGAAUUCUCGGGUGCCAA: 0.403
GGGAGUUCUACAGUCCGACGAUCCUUCUUUCUGAGAGUUGGCUCAGGCAGACAAGAGCUGCUGUCCUUUUAGGAAUAUGUUCAAUGCAAAGUAAAAAAAUAUGAAUUGUCCCCAAUCCCGGUCAUGCUUUUGCUGGAAUUCUCGGGUGCCAA: 0.546
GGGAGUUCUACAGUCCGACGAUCCUCAUUUUUCUCCCCUGCUCCUAAAACCCAAAAUCUUCUAAAGAAUUCUAGAAGGUAUGCGAUCAAACUUUUUAAAGAAAGAAAAUACUUUUUGACUCAUGGUUUAAAGGUGGAAUUCUCGGGUGCCAA: 0.669
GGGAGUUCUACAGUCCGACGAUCUGGUCACCUGUGCCCCUCGUGUCUCCUCACAUGGGUGUCUGUGGUUCUCUCCUGUGUAAAUGUCACGCCCCACCCCUGUUUCAUGUGGGCACUAACACGUGUGCGUUCCUUGGAAUUCUCGGGUGCCAA: 0.33
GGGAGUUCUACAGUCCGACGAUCAGGGUGCCCAGGUCCUCGGAGCUUUGGCUUGGCAUCUUGGGUUCAUUUGAUUUUUUUUUUUAAAGAGUGUAGUAUUGAGAUUUUAGAGUUCUCGUUUUCAUGAUUCUUGUUGGAAUUCUCGGGUGCCAA: 1.07
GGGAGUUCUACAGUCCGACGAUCAAAGCUGAGACAUUGUCCCCAACUCUUCUUGAUGUAUUUAUUAAUUUAGAGUUUUACCAGCUAUUUAUUGAGUACCCUGUAUAUAGUAGAUCAGUGAGGAGGUGAAUGUAUGGAAUUCUCGGGUGCCAA: 0.797

Set 4
Target: RING finger protein unkempt homolog, zinc fingers 1-6, GST-SBP tag (UNK, Homo sapiens, UniProt Q9C0B0, residues 30-357)
Method: RNA Bind-n-Seq
Form: RNA
Medium: in vitro
Tested at: not given
Notes: RNA with constant flanks, ends assumed
Baseline: input RNA pool
Direction: higher = stronger binding
Measurement: bound/input enrichment
Residues (chain): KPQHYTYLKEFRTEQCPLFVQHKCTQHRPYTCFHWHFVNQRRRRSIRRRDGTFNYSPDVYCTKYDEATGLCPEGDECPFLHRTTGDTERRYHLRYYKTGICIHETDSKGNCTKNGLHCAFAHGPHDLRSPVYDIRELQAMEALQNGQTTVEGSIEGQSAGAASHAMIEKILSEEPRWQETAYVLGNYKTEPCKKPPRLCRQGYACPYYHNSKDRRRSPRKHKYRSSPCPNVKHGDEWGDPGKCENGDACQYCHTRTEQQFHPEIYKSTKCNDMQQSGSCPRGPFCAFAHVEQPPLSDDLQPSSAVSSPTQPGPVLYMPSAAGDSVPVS
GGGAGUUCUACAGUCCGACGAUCAAGGAUGCUUUUGAUAAAGGUUCCCUUUUUGGAGGGUCUGUAAAAUUGGCUCUUGCAAGCUCCGGAUAUGAAAAGAGCUGUGUGUUGUUCAAUUGUGCUGCCUUAGCUAGCCAGAUUGCACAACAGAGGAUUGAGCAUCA: 0.29 ratio
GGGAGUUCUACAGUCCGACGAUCAGCCACAAAAUAUUUAAUGUGUUGUGCCUUCAUGAUGUAACAGAACAUUCUCCAGGCCGGCCGUUGGGGAAAAUAAAGGGAUAAAUCUCUAAUUAUUGCUGUUUAACUGUUUGUUAUCAUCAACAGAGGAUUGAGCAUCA: 0.304 ratio
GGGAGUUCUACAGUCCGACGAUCAUAAAAGCCAUGUUGAGUGGCCCAGGUCAGUUUGCUGAGAACGAAACCAAUGAGGUCAAUUUCCGAGAGAUACCUUCACAUGUGCUAUCGAAAGUAUGCAUGUAUUUUACGUACAAGGUUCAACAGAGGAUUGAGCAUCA: 0.0439 ratio
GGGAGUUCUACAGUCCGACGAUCGUUCGGCUCUGGGAUCAUGCCACAAUGACAGAAGUGAAAUCUCUGAAUUUUAAUAUGUCUGUCCGCAGCAUGGAGUAUAUUCCUGAAGGAGAGAUUUUGGUUAUUACUUAUGGACGAUCUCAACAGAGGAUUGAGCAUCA: 0.195 ratio
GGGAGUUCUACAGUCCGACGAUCCCACCAGAUUCCAGCCAACAUGACUCUUGCAGCCUAUAAGGAGAAGAUGAAGGAACUCCCACCCGUGUCUCUGUUCUGCUCUUGCUUCUUGUCUGAUCCCCUGAAUAAAUCAUCCUACAACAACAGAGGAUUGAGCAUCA: 0.368 ratio
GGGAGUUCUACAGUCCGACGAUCGAAGACCCAUACCCACACAAGUUCCAUGUAGACAUCUCACUCACUGACUUCAUCCAAAAAUACCGUCACCUGCAGCCUGGGGAUCACCUGACUGACAUCACCUUAAAGGUGGCAGGUAGGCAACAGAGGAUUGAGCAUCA: 0.389 ratio
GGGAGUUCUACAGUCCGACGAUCGAAGGCAAACCACUCUUCUCCCAGGCCUCUGCUCACCAGGGCUUGAGCUUUGCCUCAAGGACCGAAGGAUGUACAGAGGGGGCUCUUGGUUUGAGGACCACUUGAGCCGUUUUCUCAUCUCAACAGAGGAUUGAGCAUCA: 0.201 ratio
